Results from different studies.
Numbered parts are unrelated; each lists some results of a single study.
Sequence of UniProt P62344 (whole entry, looked up): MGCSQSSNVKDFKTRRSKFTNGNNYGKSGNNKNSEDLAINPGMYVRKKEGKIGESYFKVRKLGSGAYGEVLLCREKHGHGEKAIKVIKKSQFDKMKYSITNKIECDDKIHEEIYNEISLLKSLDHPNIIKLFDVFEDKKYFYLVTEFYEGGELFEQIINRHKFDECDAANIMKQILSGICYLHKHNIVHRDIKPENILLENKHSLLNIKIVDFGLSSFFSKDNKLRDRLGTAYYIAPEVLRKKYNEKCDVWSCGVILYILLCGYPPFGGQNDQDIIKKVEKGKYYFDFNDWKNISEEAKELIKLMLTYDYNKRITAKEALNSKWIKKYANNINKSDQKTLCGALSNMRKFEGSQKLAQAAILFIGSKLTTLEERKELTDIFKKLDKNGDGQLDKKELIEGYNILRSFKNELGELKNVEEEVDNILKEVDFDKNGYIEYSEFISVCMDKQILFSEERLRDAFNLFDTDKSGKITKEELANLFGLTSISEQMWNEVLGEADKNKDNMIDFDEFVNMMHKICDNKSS
Sequence of UniProt P42336 (whole entry, looked up): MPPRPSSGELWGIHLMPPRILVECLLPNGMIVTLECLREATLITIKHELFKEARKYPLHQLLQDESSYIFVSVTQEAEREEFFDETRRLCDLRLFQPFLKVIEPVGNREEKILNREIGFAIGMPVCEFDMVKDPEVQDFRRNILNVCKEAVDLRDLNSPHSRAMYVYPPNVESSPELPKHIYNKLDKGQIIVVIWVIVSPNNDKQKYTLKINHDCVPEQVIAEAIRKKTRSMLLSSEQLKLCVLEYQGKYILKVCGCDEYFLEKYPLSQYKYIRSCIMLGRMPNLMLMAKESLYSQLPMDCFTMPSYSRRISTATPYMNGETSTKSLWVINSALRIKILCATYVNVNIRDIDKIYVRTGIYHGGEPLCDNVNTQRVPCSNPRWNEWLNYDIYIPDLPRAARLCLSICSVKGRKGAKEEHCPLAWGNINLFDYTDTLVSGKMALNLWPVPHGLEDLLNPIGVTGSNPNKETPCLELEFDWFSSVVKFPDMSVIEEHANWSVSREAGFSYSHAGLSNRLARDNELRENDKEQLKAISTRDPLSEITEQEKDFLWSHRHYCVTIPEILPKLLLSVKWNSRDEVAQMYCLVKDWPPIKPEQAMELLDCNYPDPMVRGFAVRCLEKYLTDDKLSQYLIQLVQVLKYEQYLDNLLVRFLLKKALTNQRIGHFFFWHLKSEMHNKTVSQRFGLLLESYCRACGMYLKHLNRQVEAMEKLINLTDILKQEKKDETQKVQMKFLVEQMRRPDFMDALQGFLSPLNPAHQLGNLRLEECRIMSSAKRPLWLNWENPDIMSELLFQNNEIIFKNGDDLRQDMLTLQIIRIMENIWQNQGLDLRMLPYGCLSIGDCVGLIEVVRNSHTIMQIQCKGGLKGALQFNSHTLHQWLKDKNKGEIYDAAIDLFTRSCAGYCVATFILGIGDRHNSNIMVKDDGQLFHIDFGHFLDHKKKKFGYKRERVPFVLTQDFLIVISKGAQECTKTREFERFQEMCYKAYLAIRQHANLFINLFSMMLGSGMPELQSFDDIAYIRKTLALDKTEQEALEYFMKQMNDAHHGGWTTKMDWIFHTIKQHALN

Series 1 — matrix: plasma; route: oral
Compound: CNC(=O)c1ccc(-c2cnn3ccc(C(=O)N(C)c4ccc(Cl)c(C(=O)O)c4)cc23)cc1
species	dose	time	notes	Cmax
beagle dog	250 mg/kg/day		multiple doses	34.2 ng/mL
female C57BL/6 mouse	10 mg/kg/day			15.5 ng/mL
beagle dog	50 mg/kg/day		multiple doses	16.6 ng/mL
bovine	20 mg/kg/day			11.1 ng/mL
female C57BL/6 mouse	1 mg/kg/day			1 ng/mL
Wistar rat, both sexes	50 mg/kg/day	2 weeks	GLP toxicology study	28.9 ng/mL
beagle dog	15 mg/kg/day		multiple doses	8.68 ng/mL
Wistar rat, both sexes	250 mg/kg/day	2 weeks	GLP toxicology study	109 ng/mL

Series 2 — effect on: enzyme activity; mode: inhibitor; concentration: 77 µM; baseline: untreated
Target: DNA polymerase theta, ATPase domain (POLQ, Homo sapiens, UniProt O75417)
Sequence of UniProt O75417 (whole entry, unmodified, looked up): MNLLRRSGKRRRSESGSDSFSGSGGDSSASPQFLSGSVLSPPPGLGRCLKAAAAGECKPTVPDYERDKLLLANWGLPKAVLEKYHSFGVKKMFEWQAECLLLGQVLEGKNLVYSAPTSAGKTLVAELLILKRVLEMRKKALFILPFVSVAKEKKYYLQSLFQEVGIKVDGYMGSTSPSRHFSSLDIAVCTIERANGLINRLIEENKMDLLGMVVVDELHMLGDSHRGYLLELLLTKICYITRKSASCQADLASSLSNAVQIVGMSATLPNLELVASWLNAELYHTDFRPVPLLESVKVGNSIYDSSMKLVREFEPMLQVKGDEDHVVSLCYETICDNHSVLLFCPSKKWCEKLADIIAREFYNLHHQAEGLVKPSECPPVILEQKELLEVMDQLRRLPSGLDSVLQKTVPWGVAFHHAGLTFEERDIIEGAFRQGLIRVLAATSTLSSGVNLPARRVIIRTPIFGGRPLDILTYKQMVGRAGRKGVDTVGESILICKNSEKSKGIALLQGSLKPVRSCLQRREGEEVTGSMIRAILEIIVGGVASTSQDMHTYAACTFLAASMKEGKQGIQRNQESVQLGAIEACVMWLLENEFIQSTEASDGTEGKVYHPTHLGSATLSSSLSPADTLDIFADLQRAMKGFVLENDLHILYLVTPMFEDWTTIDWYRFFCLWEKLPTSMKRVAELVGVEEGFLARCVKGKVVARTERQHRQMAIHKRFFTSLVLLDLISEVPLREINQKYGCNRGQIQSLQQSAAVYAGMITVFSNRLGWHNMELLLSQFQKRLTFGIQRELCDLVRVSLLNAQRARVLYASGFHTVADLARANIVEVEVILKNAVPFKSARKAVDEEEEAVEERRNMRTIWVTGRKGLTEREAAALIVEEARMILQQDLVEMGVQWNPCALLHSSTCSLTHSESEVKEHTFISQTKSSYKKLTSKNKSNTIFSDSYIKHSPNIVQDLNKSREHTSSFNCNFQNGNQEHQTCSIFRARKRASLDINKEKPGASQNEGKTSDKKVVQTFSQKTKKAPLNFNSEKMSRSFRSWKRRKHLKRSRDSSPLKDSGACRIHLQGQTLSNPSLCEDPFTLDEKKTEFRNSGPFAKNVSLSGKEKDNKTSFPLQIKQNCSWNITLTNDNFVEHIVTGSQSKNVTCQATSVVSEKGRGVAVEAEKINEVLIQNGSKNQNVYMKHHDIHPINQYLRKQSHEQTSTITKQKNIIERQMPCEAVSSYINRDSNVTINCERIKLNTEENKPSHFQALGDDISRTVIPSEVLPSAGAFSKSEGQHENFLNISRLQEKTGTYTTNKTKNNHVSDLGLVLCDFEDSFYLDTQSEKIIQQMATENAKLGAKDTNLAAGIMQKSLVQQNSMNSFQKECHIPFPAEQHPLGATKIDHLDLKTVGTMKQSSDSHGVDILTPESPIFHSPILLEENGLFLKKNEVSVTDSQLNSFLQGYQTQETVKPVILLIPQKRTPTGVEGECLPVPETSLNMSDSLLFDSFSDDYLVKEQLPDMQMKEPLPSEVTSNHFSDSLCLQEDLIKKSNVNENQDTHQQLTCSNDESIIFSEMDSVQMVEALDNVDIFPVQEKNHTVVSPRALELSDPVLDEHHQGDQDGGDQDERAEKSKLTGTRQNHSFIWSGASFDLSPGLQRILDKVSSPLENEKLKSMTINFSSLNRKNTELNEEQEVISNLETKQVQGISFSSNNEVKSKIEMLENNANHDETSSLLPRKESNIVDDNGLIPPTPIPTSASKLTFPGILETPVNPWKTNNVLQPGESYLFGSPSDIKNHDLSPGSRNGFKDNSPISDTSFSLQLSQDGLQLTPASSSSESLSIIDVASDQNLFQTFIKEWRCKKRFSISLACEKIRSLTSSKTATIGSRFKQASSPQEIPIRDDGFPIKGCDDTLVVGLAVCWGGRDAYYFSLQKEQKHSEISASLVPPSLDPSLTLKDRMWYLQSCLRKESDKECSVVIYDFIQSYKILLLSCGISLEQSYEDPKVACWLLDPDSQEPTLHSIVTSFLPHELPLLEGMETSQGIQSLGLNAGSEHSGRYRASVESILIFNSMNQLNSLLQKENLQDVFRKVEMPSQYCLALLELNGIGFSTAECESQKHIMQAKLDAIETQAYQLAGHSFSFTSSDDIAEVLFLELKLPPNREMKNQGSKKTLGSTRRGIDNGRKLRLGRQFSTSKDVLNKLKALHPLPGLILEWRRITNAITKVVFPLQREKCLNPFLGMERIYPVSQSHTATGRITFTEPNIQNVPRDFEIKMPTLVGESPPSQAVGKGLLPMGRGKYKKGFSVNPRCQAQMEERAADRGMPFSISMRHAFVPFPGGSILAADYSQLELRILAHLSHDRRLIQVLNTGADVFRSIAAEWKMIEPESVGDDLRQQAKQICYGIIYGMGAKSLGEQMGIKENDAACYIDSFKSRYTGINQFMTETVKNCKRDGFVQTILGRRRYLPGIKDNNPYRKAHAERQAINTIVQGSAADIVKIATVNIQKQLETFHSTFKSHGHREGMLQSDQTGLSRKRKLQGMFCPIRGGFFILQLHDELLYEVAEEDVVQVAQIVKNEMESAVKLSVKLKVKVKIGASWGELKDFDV
Compound	remaining activity
C=CC[C@]1(O)CC[C@H]2[C@@H]3CCC4=CC(=O)CCC4=C3C=C[C@@]21C	95%
c1cc2c(cc1[C@H]1OC[C@H]3[C@@H]1CO[C@@H]3c1ccc3c(c1)OCO3)OCO2	104%
CCCN(CCC)C1Cc2cc(OC)c(OC)cc2C1	102%
CC(=O)Nc1ccc(Cc2ccc(NC(C)=O)cc2)cc1	101%
C[C@@H]1O[C@@H](O[C@H]2C[C@@H](O)[C@]3(CO)[C@H]4[C@H](O)C[C@]5(C)[C@@H](C6=CC(=O)OC6)CC[C@]5(O)[C@@H]4CC[C@]3(O)C2)[C@H](O)[C@H](O)[C@H]1O	105%
C/C=C1/C[N@+]2(C)CC[C@]34C(=C(C=O)[C@H]1C[C@@H]32)Nc1ccccc14	103%
CC[N+]1(C)CCCC(OC(=O)C(O)(c2ccccc2)c2ccccc2)C1 (stereo not shown)	98.7%
CC(C)[N+](C)(CCC(C(N)=O)(c1ccccc1)c1ccccc1)C(C)C	100%

Mixed results
Eukaryotic initiation factor 4A-III: Eukaryotic initiation factor 4A-III (Homo sapiens, UniProt P38919)
Sequence of UniProt P38919 (whole entry, looked up): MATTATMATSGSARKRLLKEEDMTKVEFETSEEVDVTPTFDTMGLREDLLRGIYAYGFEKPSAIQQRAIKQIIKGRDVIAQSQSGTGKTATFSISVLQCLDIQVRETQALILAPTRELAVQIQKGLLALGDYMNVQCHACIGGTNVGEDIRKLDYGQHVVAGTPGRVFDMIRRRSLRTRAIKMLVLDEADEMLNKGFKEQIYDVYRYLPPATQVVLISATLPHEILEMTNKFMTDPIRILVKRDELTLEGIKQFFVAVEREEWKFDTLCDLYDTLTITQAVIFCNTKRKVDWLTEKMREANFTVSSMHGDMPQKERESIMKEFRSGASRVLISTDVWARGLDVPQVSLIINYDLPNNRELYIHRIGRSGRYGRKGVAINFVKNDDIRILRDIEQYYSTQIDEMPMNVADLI
HTR2C: 5-hydroxytryptamine receptor 2C (HTR2C, Homo sapiens, UniProt P28335)
Sequence of UniProt P28335 (whole entry, looked up): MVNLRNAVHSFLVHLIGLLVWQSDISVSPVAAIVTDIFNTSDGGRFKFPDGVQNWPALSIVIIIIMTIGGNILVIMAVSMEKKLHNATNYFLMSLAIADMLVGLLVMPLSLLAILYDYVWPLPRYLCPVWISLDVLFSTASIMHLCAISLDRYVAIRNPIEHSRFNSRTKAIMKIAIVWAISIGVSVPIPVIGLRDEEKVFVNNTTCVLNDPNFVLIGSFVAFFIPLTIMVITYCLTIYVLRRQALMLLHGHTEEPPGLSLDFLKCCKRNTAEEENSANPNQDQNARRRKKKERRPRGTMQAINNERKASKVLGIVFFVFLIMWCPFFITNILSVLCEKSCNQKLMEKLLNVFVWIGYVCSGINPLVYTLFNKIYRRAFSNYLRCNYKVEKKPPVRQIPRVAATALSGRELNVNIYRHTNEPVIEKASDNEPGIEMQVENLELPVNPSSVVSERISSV
Structure (SMILES)	target	effect on	method	concentration	added	quantity	value
Cc1nc(N2CC[C@@H](O)C2)ncc1-c1cc(C(F)(F)F)cc2[nH]ncc12	Calcium-dependent protein kinase 1 (CDPK1, Plasmodium falciparum, UniProt P62344)	cell-free assay	competition with immobilised ligand	1 µM		remaining binding	100%
CONC(=O)[C@@H]1[C@@H](O)[C@@]2(O)c3c(OC)cc(OC)cc3O[C@@]2(c2ccc(Br)cc2)[C@H]1c1ccccc1	Eukaryotic initiation factor 4A-III	RNA clamping	fluorescence polarization	concentration not given	FAM-labelled poly r(AG)8 RNA	fluorescence polarization change	9.1 mP
O=C(Nc1cnc(Oc2ccc(F)cc2)nc1)N1CCc2ncccc2[C@@H]1c1ccc(F)cc1	HTR2C	binding	radioligand binding	10 µM		inhibition	18.3%
COc1ccc(-c2nc3c(c(=O)[nH]2)[C@H](c2ccccc2)[C@@]2(c4ccc(OC)cc4)Oc4cc(OC)cc(OC)c4[C@@]32O)cc1	Eukaryotic initiation factor 4A-III	RNA clamping	fluorescence polarization	concentration not given	FAM-labelled poly r(AG)8 RNA	fluorescence polarization change	19 mP
CN(C)C(=O)Cn1cc(-c2nc([C@@](C)(c3ccc(-c4cnc(N)nc4)cc3)C3CC3)no2)cn1	HTR2C	binding	radioligand binding	10 µM		inhibition	0.496%
CCCCN(CCCC)C(=O)CN1C[C@@H](c2cc(OC)c3c(c2)OCO3)[C@H](C(=O)O)[C@H]1CC(C)(C)CCC	Phosphatidylinositol 4,5-bisphosphate 3-kinase catalytic subunit alpha isoform (PIK3CA, Homo sapiens, UniProt P42336)	cell-free assay	competition with immobilised ligand	1 µM		remaining binding	95.9%

Repeated from above (mixed results):
Structure (SMILES)	target	effect on	method	concentration	added	quantity	value
Cc1nc(N2CC[C@@H](O)C2)ncc1-c1cc(C(F)(F)F)cc2[nH]ncc12	Calcium-dependent protein kinase 1 (CDPK1, Plasmodium falciparum, UniProt P62344)	cell-free assay	competition with immobilised ligand	1 µM		remaining binding	100%
CONC(=O)[C@@H]1[C@@H](O)[C@@]2(O)c3c(OC)cc(OC)cc3O[C@@]2(c2ccc(Br)cc2)[C@H]1c1ccccc1	Eukaryotic initiation factor 4A-III	RNA clamping	fluorescence polarization	concentration not given	FAM-labelled poly r(AG)8 RNA	fluorescence polarization change	9.1 mP
O=C(Nc1cnc(Oc2ccc(F)cc2)nc1)N1CCc2ncccc2[C@@H]1c1ccc(F)cc1	HTR2C	binding	radioligand binding	10 µM		inhibition	18.3%
